Experimental data of several laboratories.
Compare with care: the assays were run in different laboratories. ± marks the error that the study gave.

| SMILES | target or system | test | system | conditions | how to read | quantity | value |
| --- | --- | --- | --- | --- | --- | --- | --- |
| C=CC(=O)Nc1cccc(Cn2ncc3cnc(Nc4cnn(CCOC)c4)nc32)c1 | human ABL1(Q252H)-nonphosphorylated | KINOMEscan |  | 100 nM | reference: control | binding | 14% |
| COC1CN([C@H]2CC[C@H]([C@@]3(C)Oc4c(Cl)cc(C(=O)NCc5c(SC)cc(C)[nH]c5=O)c(C)c4O3)CC2)C1 |  | RNA-seq, measured: DYNC2H1 mouse homolog | mouse, HT-1376 xenograft, whole blood | dose not given | reference: vehicle | log2 fold change | 0.7 |
| COc1cc(O)ccc1CCC(c1ccc(O)cc1)c1cc2c(c(C)c1O)OC(c1ccc(O)cc1)CC2 (mixture of isomers) |  |  | human blood | 3 µM, with: A23187 |  | EPA level | 69600 ± 18100 pg/mL |
| O=C(N/N=C/c1ccc(C[n+]2ccccc2)cc1)c1ccc2ccc(C(=O)N/N=C/c3ccc(C[n+]4ccccc4)cc3)nc2n1 | myc22 MYC G4-DNA parallel | FRET melting |  | 1 µM, K1 buffer, DNA 0.2 µM, with: ds26 10 µM |  | ΔTm | 11.4 ± 0.2 °C |
| Nc1ncc(-c2cc(-c3cnn(CC(F)(F)F)c3)ncc2F)nc1C(=O)NC1CNCC(F)C1 (stereo not shown) | GRK4 | KINOMEscan |  | 1 µM | reference: DMSO control | remaining binding | 86% |
| O=C(N/N=C/c1ccc(C[n+]2ccccc2)cc1)c1cncc(C(=O)N/N=C/c2ccc(C[n+]3ccccc3)cc2)n1 | myc22 MYC G4-DNA parallel | FRET melting |  | 1 µM, K1 buffer, DNA 0.2 µM |  | ΔTm | 10.1 ± 0.2 °C |
| CNS(=O)(=O)Nc1nccc(Cc2c(C)c3ccc(Oc4ncccc4F)cc3oc2=O)c1F | Hs 700T | cell viability |  | 7 days |  | IC50 | 0.475 µM |
| CN1CCCNC(=O)c2cccc(c2)C(=O)NCCCN(C)CCCNc2cccc3c2C(=O)c2cccc(c2C3=O)NCCC1 | SAS | RNA-Seq, measured: CHCHD7 mRNA |  | 1 µM, 6 h | reference: untreated cells | log2 fold change | -0.606 |
| C[n+]1cc(/C=N/NC(=O)c2ccc3ccc4ccc(C(=O)N/N=C/c5cc6ccccc6[n+](C)c5)nc4c3n2)cc2ccccc21 | myc22 MYC G4-DNA parallel | FRET melting |  | 1 µM, K1 buffer, DNA 0.2 µM, with: ds26 10 µM |  | ΔTm | 11.7 ± 3.8 °C |
| Cc1ncsc1-c1ccc(C(C)NC(=O)C2CC(O)CN2C(=O)C(NC(=O)CCCCCCCCCCN2CCCC(Nc3ncc(Cl)c(Nc4ccccc4S(=O)(=O)C(C)C)n3)C2)C(C)(C)C)cc1 (stereo not shown) | 22Rv1 | RNA-seq, measured: PPWD1 mRNA |  | concentration not given | reference: DMSO | log2 fold change | -1.79 |

Repeated from above:
| SMILES | target or system | test | system | conditions | how to read | quantity | value |
| --- | --- | --- | --- | --- | --- | --- | --- |
| COc1cc(O)ccc1CCC(c1ccc(O)cc1)c1cc2c(c(C)c1O)OC(c1ccc(O)cc1)CC2 (mixture of isomers) |  |  | human blood | 3 µM, with: A23187 |  | EPA level | 69600 ± 18100 pg/mL |
